# Experimental data gathered from unrelated publications.
# Parts stem from different laboratories: compare values within a part only.

# Sample 1
# Target: RING finger protein unkempt homolog, zinc fingers 1-6, GST-SBP tag (UNK, Homo sapiens, UniProt Q9C0B0, residues 30-357)
# Method: RNA Bind-n-Seq
# Form: RNA
# Matrix: in vitro
# Concentration: not given
# Setting: RNA with constant flanks, ends assumed
# Relative to: input RNA pool
# Reading: higher = stronger binding
# Construct (chain): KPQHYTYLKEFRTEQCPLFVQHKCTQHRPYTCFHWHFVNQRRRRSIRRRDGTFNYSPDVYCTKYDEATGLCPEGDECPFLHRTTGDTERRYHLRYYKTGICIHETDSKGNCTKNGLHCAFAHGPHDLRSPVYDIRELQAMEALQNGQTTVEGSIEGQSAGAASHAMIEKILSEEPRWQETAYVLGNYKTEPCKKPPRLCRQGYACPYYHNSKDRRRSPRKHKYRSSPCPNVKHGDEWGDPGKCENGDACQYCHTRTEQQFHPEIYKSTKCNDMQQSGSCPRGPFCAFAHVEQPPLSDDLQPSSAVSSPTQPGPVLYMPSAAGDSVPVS
Sequence,bound/input enrichment [ratio]
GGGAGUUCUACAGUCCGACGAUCUCAGAAUAAUUUCAUCACUGGAGUCAGAGCGAUAAAUGAGUUCUGCCUCAAAUCCAGUGAUCCCGAACAACUUCGAAAAAUCAGACGACGAAGUCCCCAUGAAGAUACUGAGUCUUUUACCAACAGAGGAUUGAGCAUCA,0.0539
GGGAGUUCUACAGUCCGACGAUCUAUUAUUUAUUAUAGCAUUUUUGAUACCUCAUAUUCUGUUUACACAUCUUGAAAGGCGCUCAGCCGUUCUCUUACUAAACAACCACUACUCCAGAGAAUGGCAACGCUGAUUACCAGUACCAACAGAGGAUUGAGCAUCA,13.1
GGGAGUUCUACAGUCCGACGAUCCAUAUCAGUGACGUGGUGCUGGACAAGGCCAAUAAAACACCACUGCGGCCACUGGAUCCCACCCGACUACAAGGCAUAAAUUGUGGCCCAGACUUCACUCCAUCCUUUGCCAACCUUGGCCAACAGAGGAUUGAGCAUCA,0.0469
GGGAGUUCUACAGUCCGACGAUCGCUAUCUAUGUCCAAGCACUGAUUUUUCGCCUGGAAGGAAAUAUCCAAGAAUCCCCCGAACUCUUUCAGACAUGUGCUGUUCUCAGCCCACAGUGUGCUGAUAAUCUCAAGCAGGUGGCCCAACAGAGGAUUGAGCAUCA,0.159
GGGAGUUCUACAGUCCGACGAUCGAGAUAAUGGCCUCAGCUGCUAAGGAAUUUAAAAUGGACAACUUUUCACCUAAAGCUGGCACCCGCAAAUUGCAGCAGACAGUACCAGCUGAUGCGUCUCCUGAUUCUAAGUGUCCUAUACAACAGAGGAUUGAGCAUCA,0.185
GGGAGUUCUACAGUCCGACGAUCUACAGGGGUGCAUACCAUCUUGCAGUGGCUUGGCUGACAUUGCCUCUUUGUCCUGGCCUCCCGUUUUCUUUUGAUAUUUCAUAGCUCUCCUUAGUUUACUCUGCCUGGAUAGAAAGUUGACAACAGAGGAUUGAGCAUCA,0.563
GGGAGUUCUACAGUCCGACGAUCAAGAUCUUUAAUGUUGCCAUUCCCCGAUUCCAUAUGGCAUGUCCAACAUUCAGGGUGUCUACCGCCCGAUUGGAAAUGGGUCCUGAUGAAUAUGAAGAGAUGGAAGAAGAGGAGGAGGAGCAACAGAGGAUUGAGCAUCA,0.186
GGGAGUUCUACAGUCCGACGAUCAAGAUUAAAUUGCUUACUGGUAAACGCGUUCAACUGGCGGAAGACCUCAAGAAAGUCCGAGAAAUUCAAGAAAAACUUGAUGCUUUCAUUGAAGCUCUUCAUCAGGAGAAAUAAAUUAAACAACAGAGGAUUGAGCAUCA,0.152
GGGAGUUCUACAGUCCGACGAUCACUUCUGGAGGUGGGUUGGACCUCCGCGGAAUGUCUAGCUUCCAAACUUUGGCUGUUGGUAUCCGAGGCAGAUUUUCUUCUCGAGUCUCUCCUGCCUUGGAUGGGCCUCAAUAGGAGUGGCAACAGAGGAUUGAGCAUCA,0.514
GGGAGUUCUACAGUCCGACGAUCCUAAGUUCUUAACACAUAGUUUUGGACCUCAAAAUAACAUUUUAGAGUUAUUCUAGGCUCAACCGUUUUUGCUUUAGAUAAUUAUUACAUUUUCCUAAAUUUGUAAUUGCUUUAUUCUGUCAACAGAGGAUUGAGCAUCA,4.29
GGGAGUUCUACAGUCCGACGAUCGAAGAGGUUCUGCUGGAACAAGCUGGUGUAGAUGCAAGUGAAAGCUUUGAAGAUGCCGGACACUCUUCUGAUGCCAGAGAAAUGCUAAAGCAGUACUACAUUGGUGAUAUCCAUCCGUUGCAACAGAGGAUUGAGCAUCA,0.168

# Sample 2
# Target: Interferon regulatory factor 5, full length, phosphomimetic (IRF5, Homo sapiens, UniProt Q13568-2, residues 1-514, S451D/S453D/S456D/S462D)
# Method: protein-binding microarray
# Form: double-stranded DNA, one strand shown
# Matrix: in vitro
# Concentration: 940 nM top
# Setting: 60-bp whole probe
# Added: salmon DNA 0.4 mg/ml
# Relative to: random background probes
# Reading: higher = stronger binding
# Shared flanks, not repeated: GCCTAGCAC … GTCTTGATTCGCTTGACGCTGCTG
Sequence,fitted relative affinity [z-score]
TTATGGTGTGGAGAAGGCACGTGCTAG,-0.568
GACGGTGTCGGTTTCGGGACGTGCTAG,3.88
TTAGATTCCAGTTTCTATTAGTGCTAG,2.99
TTAGGTATCCGTATCCTTTAGTGCTAG,0.915
AACAGGAGCAGATGGGAAGTGTGCTAG,-0.0847
GTAGGTTTCCTACTGCTTTAGTGCTAG,0.284
GACTGTTTCGGGACTGGGGACGTGCTA,2.57
TCAGCTTCCTCTTTTTTACTGTGCTAG,1.24
TTAGGTTTCGGACTGCGTTAGTGCTAG,7.43
TTAGATTTCGGCTTTCGATTAGTGCTA,2.58
TGAGGTATCGACACTGGGTTAGTGCTA,2.88
GACGGTATCCTTATCCTGATGTGCTAG,0.141
TTAGGTTCCCTTTTCCATTAGTGCTAG,1.05
CACGGTTTCGGTATCGGGACGTGCTAG,12.8
TCATCTCTGGTCTTTGTACTGTGCTAG,1.33
GACGTTATCGGTTTCGGGACGTGCTAG,4.22
GACGGCATCGACTTTCGGGACGTGCTA,0.384
GACGGACTGCTACTGGTGACGTGCTAG,-0.538
TTAGATATCGGGACTGGATTCGTGCTA,-0.0351
TTAGATTTTAGTTCCGATTAGTGCTAG,1.91
GACGAACCGAGACTGGAGACGTGCTAG,0.47
TTAGGTTCCGGTTTCGGTAAGTGCTAG,8.92
TTAGGTTTCGTTTTCGGTTAGTGCTAG,10.2
TTAGGTTTCGGGACTGGGTCAGTGCTA,7.74

# Sample 3
# Target: Histone acetyltransferase KAT6A, winged helix 2, GST fusion (KAT6A, Homo sapiens, UniProt Q92794, residues 85-181)
# Method: protein binding microarray
# Form: double-stranded DNA, one strand shown
# Matrix: in vitro
# Concentration: not given
# Setting: 8-mer, flanks averaged, mean of 2 arrays, mostly near background
# Relative to: not given
# Reading: higher = stronger binding
# Target sequence (chain): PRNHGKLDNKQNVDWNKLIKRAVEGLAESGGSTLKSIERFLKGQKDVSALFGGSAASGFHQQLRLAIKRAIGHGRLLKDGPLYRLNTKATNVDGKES
Sequence,E-score
GATTCAGA,0.134
CACACGAG,-0.178
TCTCCACA,0.00585
ACATGGGA,-0.0104
CGCCTCAA,0.107
GCCGCACA,0.14
ACCTCTCT,-0.0739
GGTAAGAC,0.00788
CGAATGAG,-0.0451
AGACGGAC,-0.0239
AACCACAC,0.0253
CCCATCGG,0.218
CATCCTAG,-0.141
AGAAAGTC,-0.156
ACCCCAAG,-0.119
CTAAGGTC,-0.228

# Sample 4
# Target: RNA binding protein fox-1 homolog 2, RRM domain, GST-SBP tag (RBFOX2, Homo sapiens, UniProt O43251-10, residues 100-194)
# Method: RNA Bind-n-Seq
# Form: RNA
# Matrix: in vitro
# Concentration: 365 nM
# Setting: natural RNA segment, single round, ends assumed
# Relative to: no-protein control
# Reading: higher = stronger binding
# Residues (chain): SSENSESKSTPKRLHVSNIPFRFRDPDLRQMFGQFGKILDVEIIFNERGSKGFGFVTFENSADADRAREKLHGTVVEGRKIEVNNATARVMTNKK
Sequence,RBNS enrichment (R)
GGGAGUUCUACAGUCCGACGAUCCUGGUCUUUGGGAGGCAAUAGGCCACCAUGCCUGGUCAGCACCAAUUCAAGCCAUGCCAGGAAUCUGCCUACCUGCCAGGUUCAGUUCUUUUAAGGUGCCUCUUCAGGGAUGGAAUUCUCGGGUGCCAA,0.359
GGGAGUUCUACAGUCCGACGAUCACACCCAUCCCAGGGGCUACGGCAACCGACAGAACAUGGGUAGUCAUGCCAGAAGGCCAAAGGACAGCGUGGUGCACACCUUCACACCAAGGACAACUUCAGGAGGGUGCUGGAAUUCUCGGGUGCCAA,0.438
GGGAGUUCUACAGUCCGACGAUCCGUGGGCACUGCUGAGGAAUGAUCCUAGUGGUAGGUCAGAAGAAGAUGCUGUGAACACCAGGACUUUAAUCUUAUGCUUAAAAUGCCAGAUGUUGUUCGGGGGACAACUUUGGAAUUCUCGGGUGCCAA,0.679
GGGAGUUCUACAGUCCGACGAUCUGUAUGGCAUUAAUUUCCUGCCACUAGAGAUAUUUUGAAGAUUGCUUGAAUGCUGGUGUCUGUUAGAAUGCUUCUGACUACAGAUGUAAUUAAAGGCUUUUCUUACUAUGUGGAAUUCUCGGGUGCCAA,0.853
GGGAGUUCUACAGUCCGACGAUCUCCGGCCCCCAGGCCAGGGUAGUGGACAAGCCUUGGAGGAGUGGUGACAGUUUGCAGCAGUGAGGAAGGACACGCACACACACACACACACACCACAGAAAAGCACAACCUGGAAUUCUCGGGUGCCAA,0.745
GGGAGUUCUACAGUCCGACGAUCCCGGCCGCUCCACCAGCAUCACCUGCCUGUUAGGAGAAGCUGCAUCCAGAGGCAAACGGAGGCAAAGCUGGCUCACCUUCCGCACGCGGAUUAAUUUGCAUCUGAAAUAGUGGAAUUCUCGGGUGCCAA,0.541
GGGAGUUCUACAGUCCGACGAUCUCAUCUCUGUUUCUCUCAAGGCGUGUGCUUGGGCAGCUUGAGGUGAGGUUUUUCCUUCCCUGUGAAGAAAUACCAACCUUUGGACCCAAUAACAUUCAUAACUGGUAGAGUGGAAUUCUCGGGUGCCAA,0.336
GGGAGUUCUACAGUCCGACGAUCCUGUCAGGUUGGUGCGGAAGGGCUAGGAUCCUUGCCGCCCUUCCCUUCGGUGCCGGAACCCUCCCAAUUCCCCUCCCUGGCCCCACAUCCCCAACCCUGCUGCUGGAGUGUGGAAUUCUCGGGUGCCAA,0.388
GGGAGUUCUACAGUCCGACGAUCUCAAGCCGAUGCUAGCCACUAGUUUGAUUUUUUUUCUGUUUUAUAGUUUGCGCUGCAUGGUACUUGUGAAGCUUAAAUAUUUUGAGUGUUCUACUGUGUCUAGGAUUGUUUGGAAUUCUCGGGUGCCAA,2.65
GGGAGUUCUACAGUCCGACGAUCACAUUUCUAUCACAAUCAUUUUAUGGAAGAUGUGUGAUAAUCUGUUUUUACUGGUAUUAAUAAACACAUACAAUGAAGAAAACAGAUAACAAAUUUUAAGACCAAGGUAAUGGAAUUCUCGGGUGCCAA,0.344
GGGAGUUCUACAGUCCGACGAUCUCAAUUGUGCUUUAGGAAAUUAUUGACAGUUUUGCACAGGUUCUUGAAAACGUUAUUUAUAAUGAAAUCAACUAAAACUAUUUUUGCUAUAAGUUCUAUAAGGUGCAUAAUGGAAUUCUCGGGUGCCAA,0.646
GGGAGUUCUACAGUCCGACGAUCCUCCCCAUCAUCCACGCCAAGUGGAAGCCACUGGACCACAGGAGGUGUGAUAGAGCCUUUGAUCUUCAGGAUGCACGGUUUCUGUUCUGCCCCCUCAGGGAUGUGGGAAUUGGAAUUCUCGGGUGCCAA,0.22

# Excerpt of the above (sample 2):
Sequence,fitted relative affinity [z-score]
TCAGCTTCCTCTTTTTTACTGTGCTAG,1.24
TTAGGTTTCGGACTGCGTTAGTGCTAG,7.43
TTAGATTTCGGCTTTCGATTAGTGCTA,2.58
TGAGGTATCGACACTGGGTTAGTGCTA,2.88
